Experimental data gathered from unrelated publications.
Lines come from different studies, so protocols differ. ± marks the error that the study gave.
MAPK8: Mitogen-activated protein kinase 8 (MAPK8, Homo sapiens, UniProt P45983)

The chains behind the UniProt entries cited, without tags or fusion partners. Residues count along the entry.
UniProt P45983, 1-384 isoform 3: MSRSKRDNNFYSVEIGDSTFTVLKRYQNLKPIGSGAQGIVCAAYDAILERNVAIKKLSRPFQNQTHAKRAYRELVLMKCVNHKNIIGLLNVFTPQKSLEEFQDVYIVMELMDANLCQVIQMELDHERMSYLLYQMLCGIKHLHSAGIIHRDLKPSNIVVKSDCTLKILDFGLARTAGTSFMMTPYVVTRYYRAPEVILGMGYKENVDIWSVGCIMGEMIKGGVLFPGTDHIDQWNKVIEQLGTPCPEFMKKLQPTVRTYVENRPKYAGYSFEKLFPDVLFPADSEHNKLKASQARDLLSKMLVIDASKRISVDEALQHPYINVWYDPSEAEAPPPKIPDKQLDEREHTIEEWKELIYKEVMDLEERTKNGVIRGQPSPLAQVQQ
UniProt P41143, whole entry: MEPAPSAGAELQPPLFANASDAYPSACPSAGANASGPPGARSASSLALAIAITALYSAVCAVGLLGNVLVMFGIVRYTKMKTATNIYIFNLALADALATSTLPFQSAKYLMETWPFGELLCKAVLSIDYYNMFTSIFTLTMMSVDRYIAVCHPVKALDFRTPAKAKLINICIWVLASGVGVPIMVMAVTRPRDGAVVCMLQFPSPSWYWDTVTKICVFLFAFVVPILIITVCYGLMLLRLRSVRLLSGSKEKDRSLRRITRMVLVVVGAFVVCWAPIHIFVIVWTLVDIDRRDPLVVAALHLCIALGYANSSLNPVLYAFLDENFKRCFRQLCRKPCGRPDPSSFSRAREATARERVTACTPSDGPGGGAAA
UniProt Q9BUB5, 1-424 isoform 2 C190S: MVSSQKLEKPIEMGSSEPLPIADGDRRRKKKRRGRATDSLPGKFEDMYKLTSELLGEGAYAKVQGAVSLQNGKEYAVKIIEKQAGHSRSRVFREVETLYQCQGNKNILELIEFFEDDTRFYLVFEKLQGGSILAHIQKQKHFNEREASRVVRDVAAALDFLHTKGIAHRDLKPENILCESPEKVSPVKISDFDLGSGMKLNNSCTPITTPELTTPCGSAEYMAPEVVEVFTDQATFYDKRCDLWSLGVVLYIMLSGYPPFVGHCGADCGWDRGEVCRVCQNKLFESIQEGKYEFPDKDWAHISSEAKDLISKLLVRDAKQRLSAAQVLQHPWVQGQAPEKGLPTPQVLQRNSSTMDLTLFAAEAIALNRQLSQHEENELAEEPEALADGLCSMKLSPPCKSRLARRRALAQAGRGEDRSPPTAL
UniProt P06730, whole entry: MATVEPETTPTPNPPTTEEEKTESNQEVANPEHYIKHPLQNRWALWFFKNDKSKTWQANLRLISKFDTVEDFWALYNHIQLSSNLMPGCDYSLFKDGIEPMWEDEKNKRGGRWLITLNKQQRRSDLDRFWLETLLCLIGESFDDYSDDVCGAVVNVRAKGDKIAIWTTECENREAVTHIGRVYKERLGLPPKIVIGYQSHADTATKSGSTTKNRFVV
UniProt P47898, whole entry: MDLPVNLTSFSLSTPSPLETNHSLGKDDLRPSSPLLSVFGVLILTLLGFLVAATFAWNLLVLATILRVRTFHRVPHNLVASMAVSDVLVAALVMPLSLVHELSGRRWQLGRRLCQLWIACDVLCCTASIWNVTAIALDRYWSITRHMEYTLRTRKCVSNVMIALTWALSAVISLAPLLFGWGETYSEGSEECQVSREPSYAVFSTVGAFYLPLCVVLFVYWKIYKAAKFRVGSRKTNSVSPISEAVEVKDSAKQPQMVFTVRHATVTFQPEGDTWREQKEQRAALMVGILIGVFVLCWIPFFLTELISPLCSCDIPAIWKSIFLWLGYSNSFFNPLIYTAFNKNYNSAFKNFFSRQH
UniProt O39929, 2418-3008 limits assumed: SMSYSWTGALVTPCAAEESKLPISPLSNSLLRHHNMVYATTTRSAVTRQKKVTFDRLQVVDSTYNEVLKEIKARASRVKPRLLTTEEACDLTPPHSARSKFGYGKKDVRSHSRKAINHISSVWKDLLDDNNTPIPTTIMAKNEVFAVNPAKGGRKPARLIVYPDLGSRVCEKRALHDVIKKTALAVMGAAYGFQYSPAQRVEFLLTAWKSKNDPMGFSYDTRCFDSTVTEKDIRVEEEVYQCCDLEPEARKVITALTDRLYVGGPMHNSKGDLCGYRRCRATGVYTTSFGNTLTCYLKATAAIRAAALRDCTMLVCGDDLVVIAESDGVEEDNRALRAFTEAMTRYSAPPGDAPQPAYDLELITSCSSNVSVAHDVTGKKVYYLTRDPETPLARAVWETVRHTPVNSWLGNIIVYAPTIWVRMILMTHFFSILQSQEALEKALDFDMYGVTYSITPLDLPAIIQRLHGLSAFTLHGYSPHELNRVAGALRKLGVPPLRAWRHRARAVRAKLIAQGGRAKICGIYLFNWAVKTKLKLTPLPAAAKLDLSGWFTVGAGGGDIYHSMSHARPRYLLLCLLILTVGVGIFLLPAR
UniProt P9WGR1, whole entry: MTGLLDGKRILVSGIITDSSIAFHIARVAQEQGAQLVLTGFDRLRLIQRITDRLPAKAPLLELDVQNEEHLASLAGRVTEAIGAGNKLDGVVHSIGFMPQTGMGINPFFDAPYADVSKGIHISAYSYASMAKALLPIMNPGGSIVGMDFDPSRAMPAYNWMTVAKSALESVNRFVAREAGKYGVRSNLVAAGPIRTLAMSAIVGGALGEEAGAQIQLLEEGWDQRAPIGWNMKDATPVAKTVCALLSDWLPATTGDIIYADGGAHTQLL

COC(=O)[C@@]1(C)C=C(C(=O)Nc2cc(C(=O)Nc3ccc(Nc4nccc(-c5cccnc5)n4)cc3)ccc2C)C(=O)CC1
remaining activity (MAPK8; kinase activity, inhibitor; 8.363e-05 µM, unit not given, together with: 10 mM GSH; baseline: DMSO): 1.01

CN1CC[C@]23c4c5ccc(O)c4O[C@H]2c2ncc(-c4ccc(Cl)cc4)cc2C[C@@]3(OCCCc2ccccc2)[C@H]1C5
relative potency (OPRD1 (Homo sapiens, UniProt P41143); β-arrestin 2 recruitment, agonist, PathHunter; baseline: compound over SNC80): ≤ 2 fold

COC(=O)[C@@H](CS)N1C(=O)c2ccc(N(C)C)cc2C1=O
fluorescence increase (VIM-2 (Escherichia coli, UniProt Q5U7L7); probe; 10 µM, probe:enzyme 1:3, together with: ZnSO4 10 µM; baseline: probe alone): 6 fold

C[C@H](CS)C(=O)N[C@@H](Cc1c[nH]c2ccccc12)C(=O)O
MIC of meropenem (Enterobacter aerogenes; IMP-1 producing; 10 µM, together with: meropenem): 32 µg/mL

NCCNCCSc1ccccc1
logP (n-octanol/phosphate buffer; pH 7.4, average of 10, 25, 50 µg/mL): -0.6

O=C(NC1CCN(c2ncnc3[nH]cnc23)CC1)c1cccc(NS(=O)(=O)c2ccc([N+](=O)[O-])cc2)c1
viability (A549-ACE2; 0.823 µM): 106%

CSCC[C@H](NC(=O)[C@H](Cc1ccccc1)NC(=O)CNC(=O)CNC(=O)[C@@H](N)Cc1ccc(O)cc1)C(=O)O
kcat (aminopeptidase III peak, rat; substrate; MW 110 kDa, together with: NAP-2): 2.6 s⁻¹

O=C(NC1CCN(c2ncnc3[nH]cnc23)CC1)c1cccc(S(=O)(=O)Nc2ccc(Cl)cc2)c1
viability (A549-ACE2; 0.09145 µM): 108%

C=CC(=O)Nc1cc(-n2c(=O)ccc3cnc4ccc(-c5cn[nH]c5)cc4c32)ccc1C
highest concentration rescued by mutant (MKNK1 (Homo sapiens, UniProt Q9BUB5, C231S); enzyme activity, inhibitor, immunoprecipitated kinase): > 3 µM

Cc1ccc(-c2csc(NP(=O)(O)OCC3OC(n4c[n+](Cc5ccccc5)c5c(=O)[nH]c(NC(=O)c6ccccc6)nc54)C4OC(C)(C)OC34)n2)cc1 (stereo not drawn)
increase (EIF4E (Homo sapiens, UniProt P06730); item: non-phosphorylated EIF4E protein; MCF7; baseline: untreated): 15%

COc1ccc(CN[C@@H]2CO[C@H](C(c3ccccc3)c3ccccc3)C[C@H]2O)cc1
inhibition (HTR5A (Homo sapiens, UniProt P47898); radioligand binding; 10 µM, together with: [3H]LSD): 22.5%

O=c1ccn([C@@H]2O[C@H](COP(=O)(O)OP(=O)(O)OP(=O)(O)O)[C@@H](O)[C@]2(F)Br)c(=O)[nH]1
IC50 fold change (Genome polyprotein, NS5B polymerase (Hepatitis C virus genotype 4a, UniProt O39929); polymerase activity, inhibitor; Hepatitis C virus, genotype 4a; baseline: genotype 1b): 2.8

Oc1cc(Cn2cc(C3CC3)nn2)ccc1Oc1ccccc1Cl
residence time (inhA (Mycobacterium tuberculosis, UniProt P9WGR1); enzyme inhibition, inhibitor, progress curve analysis; 20 °C): 220 ± 49 min

COC(=O)[C@@]1(C)C=C(C(=O)Nc2ccc(C)c(C(=O)Nc3ccc(Nc4nccc(-c5cccnc5)n4)cc3)c2)C(=O)CC1
remaining activity (MAPK8; kinase activity, inhibitor; 0.0007527 µM, unit not given, together with: 10 mM GSH; baseline: DMSO): 0.95

NC[C@@H](NC[C@@H]1CCCN1C[C@@H](CO)NC[C@@H](NCCc1ccc(-c2ccccc2)cc1)c1ccccc1)c1ccccc1
IC90 (Klebsiella pneumoniae; bacterial growth; compound alone): > 24 µM

Repeated from above:
COc1ccc(CN[C@@H]2CO[C@H](C(c3ccccc3)c3ccccc3)C[C@H]2O)cc1
inhibition (HTR5A (Homo sapiens, UniProt P47898); radioligand binding; 10 µM, together with: [3H]LSD): 22.5%
